Measured values gathered from unrelated publications.
Each numbered part is a random draw from the data of one study; scales do not carry over between parts. Changes are numbered by the printed parent chain.

Study 1
Target: CCNA2, cyclin fold, Cln2 fusion (human)
Method: yeast growth competition, sequencing
Sample: yeast
Notes: strong parent motif
Baseline: not given
Reading: higher = stronger binding
Starting sequence: PPP1R3F docking peptide (human); VAPRRVLFADEAL
Variant | normalised enrichment score
R5K F8L | 0.427
E11A | 2.59
P3A | 4.82
D10A | 1.86
L7A | 0.526
L13A | 2.11

Study 2
Target: RING finger protein unkempt homolog, zinc fingers 1-6, GST-SBP tag (UNK, Homo sapiens, UniProt Q9C0B0, residues 30-357)
Sequence of UniProt Q9C0B0 (30-357, looked up): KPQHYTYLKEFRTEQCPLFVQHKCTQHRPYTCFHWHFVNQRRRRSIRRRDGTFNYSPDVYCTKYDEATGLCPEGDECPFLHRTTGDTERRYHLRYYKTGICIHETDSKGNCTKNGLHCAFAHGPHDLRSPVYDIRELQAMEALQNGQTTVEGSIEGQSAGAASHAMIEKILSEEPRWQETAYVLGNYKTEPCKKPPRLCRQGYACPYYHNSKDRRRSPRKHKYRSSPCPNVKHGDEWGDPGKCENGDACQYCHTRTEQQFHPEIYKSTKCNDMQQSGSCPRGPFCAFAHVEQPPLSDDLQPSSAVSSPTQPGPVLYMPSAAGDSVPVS
Method: RNA Bind-n-Seq
Molecule type: RNA
Sample: in vitro
Concentration: not given
Notes: RNA with constant flanks, human-mouse chimeric sites, ends assumed
Baseline: input RNA pool
Reading: higher = stronger binding
Constant ends, left off below: GGGAGUUCUACAGUCCGACGAUC … CAACAGAGGAUUGAGCAUCA
Oligonucleotide | bound/input enrichment
AGAAUCUUGGGACUGUUUUGCUUGAUUGGUCAUUGAUAGCUUAACAAGCAUGGAGAUAAGAUUAGAAAUCUUGACAUCAACAGGUAUUAAGCAGAAAAAACCAUGGCCACGUGUCUCCUG | 0.103 ratio
UGGCGCCUGCGCUCCCCGUUUUUAAAUUUAAGUGUAUUUUUAUAAGAUACAUGUAUUUGUAAUAGAUCUUUUGUUACAUAAUGCUGAAAUGCUACUGGAGAUUAUGAAAAAUGUUUCAAU | 0.927 ratio
AACAGAUUGUCUUUAAGCAUUCCAAGCGAGAAUGCUGGGGUGAUCAUUGUUGCCCAUAUAUAGUAAUACUGAGCUUUAAUGCUGUUCCAUGUUACAUCUUUCCUUCAUUGCAUAUUUGUU | 0.694 ratio
CUCGGCACCGGCACGCUUUACAUCGCUGAGAGCCGCCUGUCCUGGUUAGAUGGCUCUGGAUUAGGAUUCUCACUGGAAUACCCCACCAUUAGUUUACAUGCGGUGUCCAGGGAUCCAAAC | 0.391 ratio
CUAGCAGUUAUAAGGCAAGAAGGAGCCUUGAGACAAACACUCCACACACAGGGAAGGCGAUAACAUUGUACAUUGGUUUACAUUUUUUCCCCCUGUGGAUUUUUCUAGAGGUCAUAGUGC | 0.74 ratio
UUCCCAACCUCCCGCCUCACCCCACCCCCGCUUUUUGGAAAGUUUUUGGCGUUUCUUUUCCUUCCCCAUACAAAGUGAUUACAGUUUAGAGUCUAUGGGUCUAUCGAAGGGCUUGACGGA | 0.789 ratio
GCUGAAAAUGAAGAAGAGGCAGCUGAUGUCUGGUACAACCUGGGGCAUGUAGCUGUGGGAAUCGGAGAUACAAACUUGGCCCACCAAUGCUUCAGGCUGGCUCUGGUCCACAACAACCAC | 0.142 ratio
GGACAUCUGUCAAAUUGUUAUGUUCCUGUGAAACAAGUGAACACUCUUCAUAUACUAAUCUGCUUGUACAUCUGUAUGAUAGAGAAACAGAAAUCUAUUAAUCCAAGCAAUGUGUCACUU | 0.192 ratio
GAAACUAUUCCUAAAGAGGAGAAAGCUGAGAAGGAUGCUCGGAGAUCGUCUCUCGAGAAACAUAGAAAAGAAAAGCCUUUUAAAACCGGGAGAGGCAGAAUUUCCACUCCUGAAAGAAAA | 0.549 ratio
GAGCGUCUUGCCCGCACCGGGAUCAUAGUGACCACUAGUGAGGCUGUCCUCCUACAGCUGGUAGCUGACAAAGACCACCCGAAGUUCAAGGAAAUUCAGAACCUAAUUAAGGCGAGUGCC | 0.182 ratio
AGAAUCUUGGGACUGUUUUACUUAAUUGGUCAUUGAUAGCUUAACAAACAUGGAGAUAAGAUUAGAAGUUUUGACAUCAACAGGUAUUAAGCAGAAAAAACCCUGGCCACGUGUCUCCUG | 0.54 ratio

Study 3
Target: Sal-like protein 4, full length isoform B (SALL4, Homo sapiens, UniProt Q9UJQ4-2, residues 1-616)
Method: universal PBM
Molecule type: double-stranded DNA, one strand shown
Sample: in vitro
Concentration: not given
Notes: 8-mer, flanks averaged, mean of replicates
Reading: higher = stronger binding
Construct (chain): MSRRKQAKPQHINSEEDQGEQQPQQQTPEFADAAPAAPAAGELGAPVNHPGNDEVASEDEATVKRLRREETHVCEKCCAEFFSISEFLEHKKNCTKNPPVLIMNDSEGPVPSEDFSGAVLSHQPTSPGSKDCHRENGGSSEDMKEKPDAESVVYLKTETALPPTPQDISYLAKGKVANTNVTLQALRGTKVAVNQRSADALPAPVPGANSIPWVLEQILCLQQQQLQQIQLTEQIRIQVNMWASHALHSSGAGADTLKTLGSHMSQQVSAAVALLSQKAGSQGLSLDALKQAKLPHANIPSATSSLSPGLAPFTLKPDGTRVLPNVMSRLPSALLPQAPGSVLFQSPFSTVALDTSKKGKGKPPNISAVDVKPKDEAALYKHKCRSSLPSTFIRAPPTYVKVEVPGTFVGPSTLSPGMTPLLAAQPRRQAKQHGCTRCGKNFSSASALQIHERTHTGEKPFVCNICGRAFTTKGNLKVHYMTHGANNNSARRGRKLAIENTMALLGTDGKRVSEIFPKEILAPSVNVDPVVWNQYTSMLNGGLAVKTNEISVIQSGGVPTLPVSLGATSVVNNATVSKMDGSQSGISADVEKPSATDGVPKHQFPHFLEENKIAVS
Oligonucleotide | E-score
ACACGGTG | -0.141
AGACCGGG | -0.336
CCTCGGAC | -0.2
CCAAGTGA | -0.0497
GCCGATAA | 0.0526
CGGACCCG | -0.344
ATGCTGTC | 0.0145
ACAATACG | 0.141
CCGTTCTC | -0.0662
CGTCGCAA | -0.0931
TCACAGCA | -0.0429
CCGTGCAA | -0.113
AAGTAAAG | 0.147
GGGTTCAA | -0.108
ACCAACCC | -0.202
GTACGTAC | 0.0121
TTAAGCAA | 0.218
CCGTACAG | -0.00531
CACTCTCC | -0.036

Study 4
Target: RNA binding protein fox-1 homolog 2, RRM domain, GST-SBP tag (RBFOX2, Homo sapiens, UniProt O43251-10, residues 100-194)
Method: RNA Bind-n-Seq
Molecule type: RNA
Sample: in vitro
Concentration: 365 nM
Notes: natural RNA segment, single round, ends assumed
Baseline: no-protein control
Reading: higher = stronger binding
Constant ends, left off below: GGGAGUUCUACAGUCCGACGAUC … UGGAAUUCUCGGGUGCCAA
Construct (chain): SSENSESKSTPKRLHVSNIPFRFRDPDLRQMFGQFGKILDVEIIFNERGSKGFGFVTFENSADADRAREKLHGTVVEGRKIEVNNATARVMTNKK
Oligonucleotide | RBNS enrichment (R)
GGGCCGAGGUUUGCUGUGGUUCUUGUUUCAGACUGGCGUGCUGAGUGCUGGAAGCUGUUUGCACCUUUGUCAGGACACUGCGUUUCAGAAGCCACUGUUCCCUCUGGUGG | 0.504
CGUUCACUUACUGUAUAAUUUAAAAUCAUUUAUGUAGCUGAGACACUUCUGUAUUUCAAUCAUAUCAUGAACAUUUUAUUUUGCUAAAUCUUGUGUCAUGUGUAGGCUGU | 0.316
CAAACUUAACAUUAGAAAAUAAGGUCCAGGGCCGGACACAGUGGCCCAUGCCUGUAAUCCCAGCACUUUGGGGGGCCAAGGCAGGCUGGAUCACCUGAGGACAGGAGUUC | 0.762
GUUUCUUGUAAAGGAAGCCAGAGUUGACAGUACAAAGGGUCGUGGCCAGCCCUGCAGCUUCAGCACCUGCCCCACCCAGAGUGGGAGUCAGGUGGAGCCACCUGCUGGGC | 0.214
GGCAGGAUUGUACAAUGAGCAACUAUCAGAUUAUUCCUUUCAGUGGUUCUUAUGGCAUCUAAAUUACUGAAUAAAUUAUUAAUCCAUUAAUCAGUGAAUCAAAUUAUGAU | 0.774
AUUUAUUCAGGCUAAACCUACAAUAUGUGAAUCAACCCGUUUAAUGAAUCCUGGGACAUGCUGAUGACUGUAAACUGGCCUUUCCGAGUCAUAGAAAAAAAAAAGAUGGC | 0.503
GAAUUCUCAUGUAAUGAGAAGCAAGAAAACUAUGUGUUACUAUUCAUUAUAUUUCAUGUUUGACCAUUUGACUAACCAGCAGGCUUGGAGUUGAAUAGCUUUUGCUUUGC | 0.377
AAGUACUUAAUGGGGAAAAAAAAGCAGAAAUGUCAACAUUUGACCAAAUUAACACUACCUCCUCCCCAGUUGUUGGUAUUCAUUCAUUAUAUGUGUGUUUAACAGGAUGA | 0.283
CACAAGACUCUUCGAGGGGCCAGGUCAGGGCUCAUCUUCUACCGGAAAGGGGUGAAGGCUGUGGACCCCAAGACUGGCCGGGAGAUCCCUUACACAUUUGAGGACCGAAU | 0.27
AAAGUAUGCCAGGGGAGUAUGUAGCCCGGGGUGGCCCAAUGGGUGUGAGUAUGGGACAGCCGAGUUAUACCCAAGCCCAGAUGCCCCCCCAUCCUGCUCAGCUGCGUCAU | 0.527
CCUUUUCCGUAGGUCCUGAGUUCAAAUCCCAGUAACCACAUGGUGGCUGACAACCACCCGUAAUGAGAUCUGAUGCCCUCUUCUGUUGCUGUCUGAAGACAGCUACAGUA | 0.226
UGUUACAGCUUCCCCUAGAUUACAUAGCUCUGCUGUUGUCCAUUGUUUCAAAUAAAUGUUCUGUAGCAUUCCCACAUAGAGAAAAAGAGUGCUUUCUGUUUUUGUCAGAA | 0.635

Study 5
Target: Interferon regulatory factor 5, full length, phosphomimetic (IRF5, Homo sapiens, UniProt Q13568-2, residues 1-514, S451D/S453D/S456D/S462D)
Method: protein-binding microarray
Molecule type: double-stranded DNA, one strand shown
Sample: in vitro
Concentration: 940 nM top
Notes: 60-bp whole probe
With: salmon DNA 0.4 mg/ml
Baseline: random background probes
Reading: higher = stronger binding
Constant ends, left off below: GCCTAGCAC … GTCTTGATTCGCTTGACGCTGCTG
Oligonucleotide | fitted relative affinity
TATAATATATATATTGTTAGGTGCTAG | -0.202 z-score
GACGGTATCGGACTGGGTACGTGCTAG | 2.6 z-score
ATAGGACTGGACTATCGGTTAGTGCTA | -0.00961 z-score
GACGGTTTCGGGTTTAGGGACGTGCTA | 8.22 z-score
TCACTCCTCCAGGTTCTCACTGTGCTA | 0.821 z-score
TTAGGTATCGGACTGGGATAGTGCTAG | 3.33 z-score
TTAGGTTTCGGTCTCGGTGAGTGCTAG | 14.7 z-score
GACGGTCTCCTTTTCCTGATGTGCTAG | 0.734 z-score
GACGGTTTCGGTATCTGGACGTGCTAG | 12 z-score
TTAGGACTGGGGAGTGGGTTAGTGCTA | -0.0384 z-score
TTAGGCCTGGGTCTCGGTTAGTGCTAG | 1.01 z-score
GACGATATTGGGTATCGAGACGTGCTA | 1.05 z-score
TTCACTTTCTTTAACTCATTGTGCTAG | 2.89 z-score
TTAGGAATGGGTTTCGGTTAGTGCTAG | 6.98 z-score
TCTTCTGGTGTGTCTGAAGAGTGCTAG | -0.0409 z-score
TCATAAGTTTCACTCTGCACTGTGCTA | 5.96 z-score
TTTTATGAAGGCCGGGGAGGGTGCTAG | 1.04 z-score
GGATGAGTCACTTCTGGTGCTGTGCTA | -0.392 z-score
TTAGGTCACGGACTGGGTTAGTGCTAG | -0.468 z-score
TTAGGACTGGGTCGCGGTTAGTGCTAG | -0.216 z-score
GACGATCGCAGTCTCGAGACGTGCTAG | 0.677 z-score

Study 6
Target: ABI1, truncated, D143A, DHFR fusion (Arabidopsis thaliana)
Method: DHFR PCA, deep sequencing
Sample: yeast
Notes: methotrexate growth selection, single substitutions
With: (+)-ABA 0.39 µM
Baseline: wild-type fitted maximum
Reading: higher = stronger binding
Starting sequence: PYL1, truncated, DHFR fusion (Arabidopsis thaliana); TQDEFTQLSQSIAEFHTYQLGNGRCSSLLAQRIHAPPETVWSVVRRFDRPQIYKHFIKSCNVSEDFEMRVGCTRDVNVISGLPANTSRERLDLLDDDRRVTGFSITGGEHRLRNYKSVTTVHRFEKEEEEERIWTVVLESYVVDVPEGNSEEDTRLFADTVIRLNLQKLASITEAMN; partner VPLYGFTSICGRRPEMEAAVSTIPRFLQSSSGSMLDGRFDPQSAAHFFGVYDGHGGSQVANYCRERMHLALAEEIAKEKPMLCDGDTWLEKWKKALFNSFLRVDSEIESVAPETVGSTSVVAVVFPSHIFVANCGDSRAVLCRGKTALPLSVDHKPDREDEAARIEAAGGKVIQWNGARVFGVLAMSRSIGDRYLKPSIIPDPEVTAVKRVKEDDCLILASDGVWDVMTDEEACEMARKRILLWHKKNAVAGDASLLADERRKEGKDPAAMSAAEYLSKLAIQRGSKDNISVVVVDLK
Variant | relative binding score [%]
N165I | -24.4
A84R | 4.97
K126C | 61.1
S59L | -2.94
Q51H | 26.7
Q10I | 7.43
L29G | -3.97
L138V | -5.49
K168T | 37.8
G107P | -15.7
G148L | -14.8
D65A | 16.3
R74H | -8.5
T106I | 108
E4C | 32.1

A few entries again (study 6):
Variant | relative binding score [%]
G107P | -15.7
R74H | -8.5
Q10I | 7.43
N165I | -24.4
E4C | 32.1
T106I | 108
